Measured values gathered from unrelated publications.
Parts stem from different laboratories: compare values within a part only. Values joined by “and” are separate records of one study, mostly repeats; a detail may differ. pIC50: −log10 of the molar value.
Chain of UniProt P49840 (whole entry, looked up): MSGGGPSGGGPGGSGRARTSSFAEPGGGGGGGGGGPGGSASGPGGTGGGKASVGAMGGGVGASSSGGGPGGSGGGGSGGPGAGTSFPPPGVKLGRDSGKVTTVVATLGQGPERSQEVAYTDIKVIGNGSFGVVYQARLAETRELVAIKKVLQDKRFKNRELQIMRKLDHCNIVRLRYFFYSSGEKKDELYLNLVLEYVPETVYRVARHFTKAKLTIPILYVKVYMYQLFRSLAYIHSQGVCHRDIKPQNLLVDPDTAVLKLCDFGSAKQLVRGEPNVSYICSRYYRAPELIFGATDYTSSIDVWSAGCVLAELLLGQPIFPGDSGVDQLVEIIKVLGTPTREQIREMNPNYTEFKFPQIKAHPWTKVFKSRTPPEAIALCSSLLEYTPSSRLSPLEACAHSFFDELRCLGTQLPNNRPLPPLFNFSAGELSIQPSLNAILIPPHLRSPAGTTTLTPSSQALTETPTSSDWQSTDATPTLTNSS
Chain of UniProt P07332 (whole entry, looked up): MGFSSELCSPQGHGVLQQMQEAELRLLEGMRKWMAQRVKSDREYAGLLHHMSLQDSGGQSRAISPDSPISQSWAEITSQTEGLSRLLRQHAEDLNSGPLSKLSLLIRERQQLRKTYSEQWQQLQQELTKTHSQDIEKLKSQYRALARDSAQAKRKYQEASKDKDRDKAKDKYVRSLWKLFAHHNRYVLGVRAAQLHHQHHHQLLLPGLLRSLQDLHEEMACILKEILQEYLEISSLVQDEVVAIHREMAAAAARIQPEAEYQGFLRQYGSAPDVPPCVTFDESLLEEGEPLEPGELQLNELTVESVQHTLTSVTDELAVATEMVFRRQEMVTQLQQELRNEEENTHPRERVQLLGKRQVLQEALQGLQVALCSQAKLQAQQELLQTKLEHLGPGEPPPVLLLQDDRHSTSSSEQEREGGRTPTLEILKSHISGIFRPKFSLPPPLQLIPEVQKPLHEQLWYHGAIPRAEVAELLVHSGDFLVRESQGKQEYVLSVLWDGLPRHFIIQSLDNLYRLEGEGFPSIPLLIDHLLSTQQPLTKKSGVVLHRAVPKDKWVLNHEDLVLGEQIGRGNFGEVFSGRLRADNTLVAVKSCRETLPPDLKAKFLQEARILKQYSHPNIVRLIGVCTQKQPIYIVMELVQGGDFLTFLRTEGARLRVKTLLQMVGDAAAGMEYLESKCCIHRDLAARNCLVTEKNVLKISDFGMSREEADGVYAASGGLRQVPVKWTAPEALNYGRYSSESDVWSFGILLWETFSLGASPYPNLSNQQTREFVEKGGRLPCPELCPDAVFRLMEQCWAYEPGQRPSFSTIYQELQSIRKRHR
Chain of UniProt P42336 (whole entry, unmodified, looked up): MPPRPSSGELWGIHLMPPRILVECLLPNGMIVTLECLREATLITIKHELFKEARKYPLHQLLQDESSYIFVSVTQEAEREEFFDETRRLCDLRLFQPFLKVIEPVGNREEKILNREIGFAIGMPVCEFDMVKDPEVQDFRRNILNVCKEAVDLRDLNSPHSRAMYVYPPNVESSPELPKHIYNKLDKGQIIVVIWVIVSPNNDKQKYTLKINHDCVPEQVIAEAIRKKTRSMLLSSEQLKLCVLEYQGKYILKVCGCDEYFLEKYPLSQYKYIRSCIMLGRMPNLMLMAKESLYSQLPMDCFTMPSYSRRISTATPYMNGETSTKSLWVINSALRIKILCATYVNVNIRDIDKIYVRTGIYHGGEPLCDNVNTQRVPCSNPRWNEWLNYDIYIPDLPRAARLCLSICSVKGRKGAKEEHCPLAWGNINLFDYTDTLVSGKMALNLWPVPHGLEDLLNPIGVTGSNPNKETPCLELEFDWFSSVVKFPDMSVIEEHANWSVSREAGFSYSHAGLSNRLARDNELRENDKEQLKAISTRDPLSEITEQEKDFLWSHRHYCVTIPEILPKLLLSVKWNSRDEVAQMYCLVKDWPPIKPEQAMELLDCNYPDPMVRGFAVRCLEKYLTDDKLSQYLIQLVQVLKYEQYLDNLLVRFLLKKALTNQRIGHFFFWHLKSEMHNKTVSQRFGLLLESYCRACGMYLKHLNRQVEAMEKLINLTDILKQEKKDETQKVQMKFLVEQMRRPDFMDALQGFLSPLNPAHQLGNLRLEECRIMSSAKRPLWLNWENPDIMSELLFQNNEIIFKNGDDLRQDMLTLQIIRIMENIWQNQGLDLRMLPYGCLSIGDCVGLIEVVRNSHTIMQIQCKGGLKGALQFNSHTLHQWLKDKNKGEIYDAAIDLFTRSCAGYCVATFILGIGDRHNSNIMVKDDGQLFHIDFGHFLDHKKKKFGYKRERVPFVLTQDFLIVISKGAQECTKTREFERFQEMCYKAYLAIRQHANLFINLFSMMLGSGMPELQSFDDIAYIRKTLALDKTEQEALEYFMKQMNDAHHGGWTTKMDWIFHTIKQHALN
Chain of UniProt O43683 (whole entry, looked up): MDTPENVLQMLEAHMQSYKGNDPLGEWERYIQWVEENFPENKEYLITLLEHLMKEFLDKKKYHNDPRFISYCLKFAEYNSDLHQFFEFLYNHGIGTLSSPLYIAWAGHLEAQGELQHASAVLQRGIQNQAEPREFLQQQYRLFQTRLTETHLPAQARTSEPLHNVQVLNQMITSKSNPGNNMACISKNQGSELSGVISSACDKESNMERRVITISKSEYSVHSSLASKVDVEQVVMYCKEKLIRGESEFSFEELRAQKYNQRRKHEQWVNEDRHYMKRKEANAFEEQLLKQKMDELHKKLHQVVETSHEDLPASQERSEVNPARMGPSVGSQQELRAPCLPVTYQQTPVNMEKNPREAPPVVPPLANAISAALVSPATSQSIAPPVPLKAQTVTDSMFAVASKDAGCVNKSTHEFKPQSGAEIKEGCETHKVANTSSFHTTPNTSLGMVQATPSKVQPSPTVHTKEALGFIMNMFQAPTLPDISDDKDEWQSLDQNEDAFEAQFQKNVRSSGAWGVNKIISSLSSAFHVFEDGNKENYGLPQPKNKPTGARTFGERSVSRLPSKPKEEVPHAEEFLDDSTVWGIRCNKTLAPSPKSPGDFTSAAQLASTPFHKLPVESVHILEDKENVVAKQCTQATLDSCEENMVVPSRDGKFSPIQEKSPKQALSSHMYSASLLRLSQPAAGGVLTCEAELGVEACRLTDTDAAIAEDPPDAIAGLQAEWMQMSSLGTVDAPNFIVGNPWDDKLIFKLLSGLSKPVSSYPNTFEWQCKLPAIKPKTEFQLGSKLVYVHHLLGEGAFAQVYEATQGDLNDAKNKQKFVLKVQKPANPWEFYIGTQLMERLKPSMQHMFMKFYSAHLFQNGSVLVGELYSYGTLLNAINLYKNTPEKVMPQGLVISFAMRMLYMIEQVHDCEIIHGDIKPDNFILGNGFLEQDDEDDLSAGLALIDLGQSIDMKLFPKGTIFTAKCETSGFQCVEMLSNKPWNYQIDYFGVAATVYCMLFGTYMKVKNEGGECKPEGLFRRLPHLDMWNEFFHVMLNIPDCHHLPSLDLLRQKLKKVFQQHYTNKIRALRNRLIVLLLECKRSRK

Block 1 — observed: cell-free assay; method: competition with immobilised ligand; concentration: 1 µM; endpoint: remaining binding
Compound: O=C1NC(c2ccccn2)Sc2ccccc21 (stereo not shown)
cAMP-dependent protein kinase catalytic subunit alpha (PRKACA, Homo sapiens, UniProt P17612): 81%
Glycogen synthase kinase-3 alpha (GSK3A, Homo sapiens, UniProt P49840): 73%
Phosphatidylinositol 4,5-bisphosphate 3-kinase catalytic subunit alpha isoform (PIK3CA, Homo sapiens, UniProt P42336, E545K): 73%
Tyrosine-protein kinase Fes/Fps (FES, Homo sapiens, UniProt P07332): 94%
Protein-tyrosine kinase 2-beta (PTK2B, Homo sapiens, UniProt Q14289): 76%
Mitotic checkpoint serine/threonine-protein kinase BUB1 (BUB1, Homo sapiens, UniProt O43683): 100%

Block 2 — observed: enzyme activity; mode: inhibitor; concentration: 0.5 µM; reference: control; endpoint: remaining activity
Target: Serine/threonine-protein kinase PLK2 (PLK2, Homo sapiens, UniProt Q9NYY3)
Chain of UniProt Q9NYY3 (whole entry, looked up): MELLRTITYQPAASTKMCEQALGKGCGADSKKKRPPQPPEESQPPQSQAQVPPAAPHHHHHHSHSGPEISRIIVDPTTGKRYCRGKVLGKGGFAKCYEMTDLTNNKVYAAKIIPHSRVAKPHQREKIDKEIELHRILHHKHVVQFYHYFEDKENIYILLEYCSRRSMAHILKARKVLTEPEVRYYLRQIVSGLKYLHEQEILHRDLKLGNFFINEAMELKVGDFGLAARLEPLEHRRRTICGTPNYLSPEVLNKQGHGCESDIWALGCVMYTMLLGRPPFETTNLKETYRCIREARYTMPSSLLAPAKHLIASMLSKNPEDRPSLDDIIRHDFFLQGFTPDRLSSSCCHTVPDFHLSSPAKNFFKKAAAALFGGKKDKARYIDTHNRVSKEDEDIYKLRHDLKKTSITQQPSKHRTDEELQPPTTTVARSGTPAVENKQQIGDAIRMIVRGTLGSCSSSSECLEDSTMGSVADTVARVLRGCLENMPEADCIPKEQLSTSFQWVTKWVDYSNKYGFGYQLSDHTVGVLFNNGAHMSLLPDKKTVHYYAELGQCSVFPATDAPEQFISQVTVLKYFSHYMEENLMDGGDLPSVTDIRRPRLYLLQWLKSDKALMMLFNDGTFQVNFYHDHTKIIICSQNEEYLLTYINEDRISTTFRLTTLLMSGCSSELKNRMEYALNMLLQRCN
COc1cc2ncnc(Nc3ccc(Oc4ccccc4)cc3)c2cc1OC: 104%
O=S(=O)(c1cccc2cnccc12)N1CCCNCC1: 100%
Nc1[nH]nc2nc3ccccc3nc12: 101%
O=c1c2ccccc2[nH]c(=S)n1CCN1CCC(=C(c2ccc(F)cc2)c2ccc(F)cc2)CC1: 104%
CCOC(=O)c1c(C)[nH]c(/C=C2\C(=O)Nc3ccccc32)c1C: 102%
Cc1cccc(-c2[nH]c(C(C)(C)C)nc2-c2ccc3c(c2)OCO3)n1: 92.1%
CN(C)c1ccc(C=C2C(=O)Nc3ccccc32)cc1: 111%
COc1ccc(OC)c2c(=S)c3ccccc3[nH]c12: 97.6%
O=C(Nc1cccc(Nc2cc(Nc3cccc(C(F)(F)F)c3)ncn2)c1)C1CC1: 109%
Oc1ccc(-c2nc(-c3ccncc3)c(-c3ccc(F)cc3)[nH]2)cc1: 98.7%
NCCNc1ncc(C(N)=O)c(Nc2cccc(C(F)(F)F)c2)n1: 98.7%
N#CC(C#N)=C(N)/C(C#N)=C/c1ccc(O)cc1: 99.9%
COc1cc2nccc(Oc3ccc(NC(=S)NC(=O)c4ccccc4C)cc3)c2cc1OC: 99.5%
Cn1c2ccccc2c2c3c(c4c5ccccc5n(CCC#N)c4c21)CNC3=O: 105%
Nc1ccc2ncnc(NCCc3ccc(Oc4ccccc4)cc3)c2c1: 102%

Block 3 — observed: target engagement; method: BRET; endpoint: pIC50
Compound: Cn1cnc(Cn2ccc3ccc(CNCc4[nH]c5ccccc5c4[C@H]4NC(=O)c5ccc(O)cc54)cc32)c1
KRAS G12C: GTPase KRas (KRAS, Homo sapiens, UniProt P01116, G12C)
KRAS G12C; HEK293; 0.5 h: 5.92
GTPase KRas (KRAS, Homo sapiens, UniProt P01116); HEK293 cells: 6.12
KRAS G12C; HEK293; 4 h: 6.14

Block 4 — organism: Leishmania donovani; observed: parasite killing; strain: DD8; endpoint: inhibition
SMILES: c1ccc(Oc2ccc(Nc3c4c(nc5ccccc35)CCC4)cc2)cc1
promastigotes; 66.66 µM, 96 h: 99% and 100%
promastigotes; 3.33 µM, 24 h: 53% and 51% and 43%
intracellular amastigotes; 8 µM, 96 h: 100%
intracellular amastigotes; 40 µM, 48 h: 100%

Block 5 — cell line: HaCaT; concentration: 100 µM; time: 36 h; endpoint: viability
COC1=CC(=O)C[C@@H](C)[C@]12Oc1c(Cl)c(OC)cc(OC)c1C2=O: 51.9%
CC(COc1ccccc1)NC(C)C(O)c1ccc(O)cc1 (stereo not shown): 98.9%
CCN(CC)C(=O)N1CCN(C)CC1: 97.4%
CCC(=O)c1c(O)cc(O)cc1O: 86%
CCCCC(C)(O)C/C=C/[C@H]1[C@H](O)CC(=O)[C@@H]1CCCCCCC(=O)OC (mixture of isomers): 94.6%
CC(N)CCCC(C)(C)O (stereo not shown): 84.3%

Some of these lines once more (block 5):
CC(N)CCCC(C)(C)O (stereo not shown): 84.3%
CC(COc1ccccc1)NC(C)C(O)c1ccc(O)cc1 (stereo not shown): 98.9%
CCN(CC)C(=O)N1CCN(C)CC1: 97.4%
COC1=CC(=O)C[C@@H](C)[C@]12Oc1c(Cl)c(OC)cc(OC)c1C2=O: 51.9%
CCC(=O)c1c(O)cc(O)cc1O: 86%
